Experimental data from different studies.
Every numbered part comes from another study and shows a few of its results, in no order. Changes are numbered by the printed parent chain.

Sample 1
Cell line: yeast with cyclin A1-Cln2 chimera
Read-out: cell growth
Action: binder
Method: competitive growth deep sequencing
Form: peptide
Concentration: concentration not given
Setting: peptide tiling library
Reading: direction not given
Measurement: growth enrichment score
PKRAKRKLYTSEISSP: 0.498
HPESPPRKRLKSKGSD: 0.671
GTPKRCLDLSNLSSGE: 0.324
ASVLSKPIFCFVKD: 0.132
TSSAQRRLEIPSGGAD: 0.195
IPMIAKNLMCELDE: 0.0589
PKNAKRNLSSEFAN: 0.17
TLPYDLACTGGDFVLF: -0.445
TQERKQIHCLSEDELS: -0.324

Sample 2
Target: Sal-like protein 4, full length isoform A (SALL4, Homo sapiens, UniProt Q9UJQ4, residues 1-1053)
Chain of UniProt Q9UJQ4 (whole entry, looked up): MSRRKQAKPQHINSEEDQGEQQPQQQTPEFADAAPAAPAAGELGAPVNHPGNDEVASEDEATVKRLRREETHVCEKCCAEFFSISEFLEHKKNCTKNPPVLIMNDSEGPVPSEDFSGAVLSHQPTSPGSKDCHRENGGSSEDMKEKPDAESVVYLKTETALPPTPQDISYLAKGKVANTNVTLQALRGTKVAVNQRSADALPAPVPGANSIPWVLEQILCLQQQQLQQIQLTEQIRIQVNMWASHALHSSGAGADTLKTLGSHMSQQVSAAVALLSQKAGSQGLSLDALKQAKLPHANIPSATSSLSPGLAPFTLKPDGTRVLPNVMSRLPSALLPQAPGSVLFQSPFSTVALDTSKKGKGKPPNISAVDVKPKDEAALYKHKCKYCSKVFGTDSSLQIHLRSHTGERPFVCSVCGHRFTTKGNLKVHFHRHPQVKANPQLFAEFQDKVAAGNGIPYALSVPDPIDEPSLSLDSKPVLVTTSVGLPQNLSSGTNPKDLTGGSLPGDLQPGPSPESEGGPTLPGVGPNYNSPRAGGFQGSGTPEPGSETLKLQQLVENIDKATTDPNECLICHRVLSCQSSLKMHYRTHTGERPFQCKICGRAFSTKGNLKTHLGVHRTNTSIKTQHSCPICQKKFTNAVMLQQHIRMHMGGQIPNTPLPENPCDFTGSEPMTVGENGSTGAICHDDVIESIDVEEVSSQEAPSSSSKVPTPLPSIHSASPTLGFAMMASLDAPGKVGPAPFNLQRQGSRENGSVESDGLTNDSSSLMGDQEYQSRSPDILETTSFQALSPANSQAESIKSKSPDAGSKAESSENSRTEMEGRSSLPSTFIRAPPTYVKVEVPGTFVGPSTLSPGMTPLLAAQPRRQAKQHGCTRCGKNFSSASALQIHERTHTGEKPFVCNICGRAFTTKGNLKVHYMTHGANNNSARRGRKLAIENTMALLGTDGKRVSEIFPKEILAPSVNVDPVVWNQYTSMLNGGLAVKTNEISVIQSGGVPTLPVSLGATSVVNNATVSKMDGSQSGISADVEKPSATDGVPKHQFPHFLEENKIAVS
Method: universal PBM
Form: double-stranded DNA, one strand shown
Medium: in vitro
Concentration: 600 nM
Setting: 8-mer, flanks averaged, mean of replicates
Reading: higher = stronger binding
Measurement: E-score
AAATCTTA: 0.277
CCGTGGGA: -0.312
AGGGGACC: -0.408
CTAGGTGA: -0.186
TACTGACA: 0.0978
ACGCCGTG: -0.177
CCGGGCCC: -0.308
CTTTGAAC: -0.0169
ATTGTTTC: 0.238
TGCGAAAA: 0.21
ACTCAACA: 0.212
ACTAATTC: 0.228
CTAACTCC: -0.103
AAGCGAGC: -0.113
ACGAGGTA: -0.0417
GGTTAGGA: -0.0912
ACCGCGGA: -0.272
GGTAACAA: 0.217
AAACGAGG: -0.183
GACACCCC: -0.339
ACGTCAAC: 0.0659
TAGTACGA: 0.149
CAGCGAAA: -0.0979
ACGGCCAT: -0.17
CCTTTCCC: -0.0593

Sample 3
Target: Histone acetyltransferase KAT6A, winged helix 1, GST fusion (KAT6A, Homo sapiens, UniProt Q92794, residues 1-85)
Method: protein binding microarray
Form: double-stranded DNA, one strand shown
Medium: in vitro
Concentration: not given
Setting: 8-mer, flanks averaged, mean of 2 arrays, mostly near background
Baseline: not given
Reading: higher = stronger binding
Measurement: E-score
Residues (chain): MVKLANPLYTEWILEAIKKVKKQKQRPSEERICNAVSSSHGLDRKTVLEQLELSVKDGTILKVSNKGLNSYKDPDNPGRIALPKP
CCACGGTA: 0.283
ACCTGGTC: 0.0144
CACGTAAG: -0.0582
ATCAGAGA: -0.24
GACCCGTA: 0.262
GTCTAGTA: -0.0327
CACACACG: 0.155
CGCGCCCG: 0.457
GCCGGCCC: 0.38
CATCTCGG: -0.02
AAACACAA: -0.254
CCTTACAC: -0.0166
AATACATG: -0.0786
AGTGTGTC: -0.0641
AGGTCTAC: -0.0907
AAAACGAG: -0.113
ACAAACAG: -0.252
CTACGCCC: 0.17
CATCCCTC: -0.13
CTTGTTCC: -0.0816
CAGAAGGC: -0.0434
TCGATTAA: -0.138
CCATCATC: -0.122
GACCCTGC: -0.154
ATCCAGCG: 0.177

Sample 4
Target: ABI1, truncated, D143A, DHFR fusion (Arabidopsis thaliana)
Method: DHFR PCA, deep sequencing
Medium: yeast
Setting: methotrexate growth selection, single substitutions
Together with: (+)-ABA 710 µM
Baseline: wild-type fitted maximum
Reading: higher = stronger binding
Measurement: relative binding score
Parent: PYL1, truncated, DHFR fusion (Arabidopsis thaliana); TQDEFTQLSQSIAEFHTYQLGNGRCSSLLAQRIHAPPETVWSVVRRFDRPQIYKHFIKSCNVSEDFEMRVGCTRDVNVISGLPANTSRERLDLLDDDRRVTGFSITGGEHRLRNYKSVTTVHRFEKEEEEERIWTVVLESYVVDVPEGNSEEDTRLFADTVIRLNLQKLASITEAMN
G71H: 74.8%
T119D: 1.97%
I33C: 95.9%
E67H: 101%
T86M: 98.2%
E152W: 95.5%
P37D: 84.5%
R163K: 103%
G81H: 65.8%
Q167C: 94.8%
G23Q: 96.7%
F15W: 101%
E174H: 88.2%
R111S: 78.8%
T160I: 89.6%
N149A: 88.2%
A84W: 57.2%
L164M: 101%

Sample 5
Target: Fragile X messenger ribonucleoprotein 1, C-terminal low-complexity region (Fmr1, Mus musculus, UniProt P35922)
Method: RNA Bind-n-Seq
Form: RNA
Medium: in vitro
Concentration: 200 nM
Setting: whole 134-nt RNA, ends assumed
Together with: 150 mM KCl
Baseline: input library
Reading: higher = stronger binding
Measurement: log2 enrichment
Constant ends, left off below: GGGAGUUCUACAGUCCGACGAUC … UGGAAUUCUCGGGUGUCAAGG
AAGUCCUGUGCUACACAUCGUAUGUACCGAAUCGGGUGGGAAAGGGUUUUUUUGGGAAAGUAUUAUGUUACGCCGUUCGGAUCUGCACUU: 0.742
CACAGACAACACGCACCCACACAGACACAGAUGGAAGGGGUUGGGAUGGGGACAGGGUGCACAGCAGGGCGGGGUAGGACCCCAGCCCCU: 1.31
UCAAGUCCUGUGCUACACAUCGUAUGUACCGAAUCGGGAAAAAGGGUGGGAGGGAAAGUAUUAUGUUACGCCGUUCGGAUCUGCACUUCC: 1.13
UCCUCAAGUCCUGUGCUACACAUCGUAUGUACCGAAUCGGGGAGGAGGAGGAAAGUAUUAUGUUACGCCGUUCGGAUCUGCACUUCCAGC: -0.266
UAACUUUAGAAGAGGAUCUGAUGGAUAUGGCAGUGGACGUGGAUUUGGGGAUGGCUAUAAUGGGUAUGGAGGAGGACCUGGAGGUGGCAA: 0.34
UCCUCAAGUCCUGUGCUACACAUCGUAUGUACCGAAUCGGAGGGAGGGAGGGAAAGUAUUAUGUUACGCCGUUCGGAUCUGCACUUCCAG: 1.34
UCAUUUUUUUCCCUGCCGGAAUUUUAGCAUUGAUAUGAACCAUGGACAAGUAUAUUCUGCUGCCACAAAGACUGUAAAGUGCUUCAUUUC: 0.332
UCCUGUGCUACACAUCGUAUGUACCGAAUCGGGAAAAAAAGGAAAAAAAGGAAAAAAAGGAAAGUAUUAUGUUACGCCGUUCGGAUCUGC: -0.181
ACCAUGCAGGUGGGCAUCUUUGGGAAGUGGGAAAAGGGGGGGAUAGGGAGGGGGGUAACACUUUGGGAACAGGUGGUCCCAGGUCGUUUC: 0.753
CCUGUGCUACACAUCGUAUGUACCGAAUCGGGGUUUUUUUGGUUUUUUUGGUUUUUUUGGGAAAGUAUUAUGUUACGCCGUUCGGAUCUG: -0.864
CUGUGCUACACAUCGUAUGUACCGAAUCGGCCCCCCCGGGGCCCCCCCGGGCCCCCCCGGGAAAGUAUUAUGUUACGCCGUUCGGAUCUG: -1.21
UUUGCUUGCAGUAUCUGUUUCUCUUCCUAGGCUCAAGUUGGUGACCCAAGCCUAUUGUAAACAAGUGAUUAUCUCAAAGGGAGAUGCCAA: -0.398
UCCUUCCUUUUUUUGUCUUAAACAUAGGACAUGGAUUUGAUUGACAUACUUUGGAGGCAAGAUAUAGAUCUUGGAGUAAGUCGAGAAGUA: -0.282
CAAGUCCUGUGCUACACAUCGUAUGUACCGAAUCGGUUUUUGGUGGAAAAAAAGGAAAGUAUUAUGUUACGCCGUUCGGAUCUGCACUUC: -0.638

Sample 6
Target: Prothrombin, mature alpha-thrombin (F2, Homo sapiens, UniProt P00734)
Method: aptamer microarray, sandwich
Form: DNA with 2'F-ANA
Medium: in vitro
Concentration: 200 nM
Setting: whole 15-mer aptamer, many near background
Together with: Cy3 exosite-II aptamer, 400 nM
Reading: higher = stronger binding
Measurement: mean fluorescence intensity
Strand: GGTTGGTGTGGTTGG
2'F-ANA at 2 3 5 7 8 10 13 15: 54.5 a.u.
2'F-ANA at 7 8 11 12 13: 702 a.u.
2'F-ANA at 1 3 6 8 10 11 14 15: 59.3 a.u.
2'F-ANA at 2 3 4 5 8 9 10 14 15: 47.9 a.u.
2'F-ANA at 2 3 5 8 9 11 12 13 14: 59.5 a.u.
2'F-ANA at 4 5 9 10 11 15: 47.2 a.u.
2'F-ANA at 2 3 6 11 12 13 14: 426 a.u.
2'F-ANA at 2 3 4 8 10 11 13 14 15: 148 a.u.
2'F-ANA at 1 2 3 4 5 7 8 9 13 14: 78.5 a.u.
2'F-ANA at 1 6 9 11 13 14: 55.3 a.u.
2'F-ANA at 2 3 6 7 8 10 12 14 15: 262 a.u.
2'F-ANA at 2 3 5 7 8 9 11 12 13: 152 a.u.
2'F-ANA at 1 6 10 11 12 15: 67.3 a.u.
2'F-ANA at 1 4 7 9 14: 49 a.u.
2'F-ANA at 1 2 3 4 5 7 8 10: 48.3 a.u.
2'F-ANA at 1 2 4 9 10 11 12 14 15: 65.9 a.u.
2'F-ANA at 3 5 6 7 8 10 12 14 15: 50.2 a.u.
2'F-ANA at 1 2 4 7 8 9 10 11: 48.9 a.u.
2'F-ANA at 1 3 6 9 11 14 15: 71.2 a.u.

Sample 7
Target: Interferon regulatory factor 5, full length, phosphomimetic (IRF5, Homo sapiens, UniProt Q13568-2, residues 1-514, K96S/S451D/S453D/S456D/S462D)
Method: protein-binding microarray
Form: double-stranded DNA, one strand shown
Medium: in vitro
Concentration: 250 nM
Setting: 60-bp whole probe
Together with: salmon DNA 0.4 mg/ml
Baseline: random background probes
Reading: higher = stronger binding
Measurement: log fluorescence
Constant ends, left off below: GCCTAGCAC … GTCTTGATTCGCTTGACGCTGCTG
TTAGGTTTTCTACTGCTTTAGTGCTAG: 0.65 z-score
GACAGTATCCTTTTCCTGACGTGCTAG: 1.02 z-score
GACGGCTTCGGGTATCGGGACGTGCTA: 0.482 z-score
GTGTATATGGACGTCTGAAGGTGCTAG: -0.427 z-score
TTACGTATCGGTTTCGGTTAGTGCTAG: 11.4 z-score
TTAGGACTGCTTCTCCTATAGTGCTAG: -0.135 z-score
CTGTTTTTGCTTTCTTTATGGTGCTAG: 2.86 z-score
GACGGTTTCCTTATCCTAACGTGCTAG: 0.883 z-score
TGAGGTTTCGACTTTCGGTTAGTGCTA: 9.83 z-score
GACGGCTTCGGGACTGGGGACGTGCTA: -0.285 z-score
TCTGGTTCCCATTCCAGGGTGTGCTAG: -0.207 z-score
TTAGGTTTCGACACTGCGTTAGTGCTA: 5.84 z-score
GAAAACAAAGAAAATACAAAGTGCTAG: 1.88 z-score
GACGGAATGCTACTGCTGACGTGCTAG: -0.595 z-score
GACGATCTCAGTATCGAGATGTGCTAG: 1.91 z-score
ATTACTCCCCAACTCGCCTTGTGCTAG: 0.111 z-score
CTTAGAATAATTTTTTAGCTTGTGCTA: 0.472 z-score
TTCGGACTGGACTATCGGTTAGTGCTA: 5.86 z-score
GACGGTTTCCTTTTCCAGACGTGCTAG: 1.02 z-score
TCATGTTTCCTTCCTCTACTGTGCTAG: 1.06 z-score
TAAATTCTGAAAATGGAAACGTGCTAG: 0.63 z-score
GACGGACTAGGGACTGGGGACGTGCTA: -0.354 z-score

A few entries again (sample 2):
CTTTGAAC: -0.0169
ATTGTTTC: 0.238
TGCGAAAA: 0.21
ACTCAACA: 0.212
ACTAATTC: 0.228
CTAACTCC: -0.103
AAGCGAGC: -0.113
ACGAGGTA: -0.0417
GGTTAGGA: -0.0912
